Assay results from different studies.
Numbered parts are unrelated; each lists some results of a single study.
Sequence of UniProt Q16513 (whole entry, looked up): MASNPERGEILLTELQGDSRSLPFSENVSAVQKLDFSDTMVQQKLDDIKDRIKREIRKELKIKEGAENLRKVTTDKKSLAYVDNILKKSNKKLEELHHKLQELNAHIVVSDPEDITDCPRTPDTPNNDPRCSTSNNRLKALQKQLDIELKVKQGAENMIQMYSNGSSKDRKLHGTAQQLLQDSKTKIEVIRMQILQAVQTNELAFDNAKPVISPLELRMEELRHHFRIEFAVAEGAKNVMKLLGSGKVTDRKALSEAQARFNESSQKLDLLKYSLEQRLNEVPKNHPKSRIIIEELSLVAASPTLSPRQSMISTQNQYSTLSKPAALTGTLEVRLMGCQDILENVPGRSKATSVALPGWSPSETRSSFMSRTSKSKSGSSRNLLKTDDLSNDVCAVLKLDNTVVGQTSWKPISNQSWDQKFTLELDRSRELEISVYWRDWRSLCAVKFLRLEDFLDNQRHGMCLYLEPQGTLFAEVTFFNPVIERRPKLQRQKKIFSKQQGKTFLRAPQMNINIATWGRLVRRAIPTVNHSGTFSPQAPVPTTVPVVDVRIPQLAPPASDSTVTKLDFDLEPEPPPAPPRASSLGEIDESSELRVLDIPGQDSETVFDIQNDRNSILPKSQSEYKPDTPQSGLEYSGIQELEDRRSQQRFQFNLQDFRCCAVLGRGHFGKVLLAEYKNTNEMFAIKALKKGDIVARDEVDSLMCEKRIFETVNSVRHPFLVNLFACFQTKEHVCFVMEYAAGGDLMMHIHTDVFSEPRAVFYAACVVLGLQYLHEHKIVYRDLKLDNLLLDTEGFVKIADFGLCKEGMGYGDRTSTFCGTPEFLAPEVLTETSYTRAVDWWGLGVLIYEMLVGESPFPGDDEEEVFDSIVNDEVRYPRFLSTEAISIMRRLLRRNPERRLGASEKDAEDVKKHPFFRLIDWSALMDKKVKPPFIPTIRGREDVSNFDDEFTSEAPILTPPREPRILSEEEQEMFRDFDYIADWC
Sequence of UniProt P34947 (whole entry, looked up): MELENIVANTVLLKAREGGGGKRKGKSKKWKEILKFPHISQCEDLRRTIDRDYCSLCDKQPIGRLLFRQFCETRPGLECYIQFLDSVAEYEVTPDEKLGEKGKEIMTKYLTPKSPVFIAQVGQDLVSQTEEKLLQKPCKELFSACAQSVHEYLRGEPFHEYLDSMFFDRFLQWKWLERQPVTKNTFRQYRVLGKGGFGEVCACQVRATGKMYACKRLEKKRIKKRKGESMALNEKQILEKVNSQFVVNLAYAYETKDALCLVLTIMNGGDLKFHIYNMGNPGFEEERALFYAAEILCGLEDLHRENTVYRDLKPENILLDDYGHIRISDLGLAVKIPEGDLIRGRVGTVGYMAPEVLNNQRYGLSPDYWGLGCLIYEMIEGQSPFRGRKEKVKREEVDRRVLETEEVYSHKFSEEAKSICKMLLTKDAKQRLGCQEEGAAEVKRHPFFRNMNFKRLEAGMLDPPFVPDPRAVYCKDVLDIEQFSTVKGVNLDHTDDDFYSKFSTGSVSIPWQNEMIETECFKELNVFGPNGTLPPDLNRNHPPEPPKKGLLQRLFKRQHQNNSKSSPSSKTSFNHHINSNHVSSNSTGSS
Sequence of UniProt P19784 (whole entry, looked up): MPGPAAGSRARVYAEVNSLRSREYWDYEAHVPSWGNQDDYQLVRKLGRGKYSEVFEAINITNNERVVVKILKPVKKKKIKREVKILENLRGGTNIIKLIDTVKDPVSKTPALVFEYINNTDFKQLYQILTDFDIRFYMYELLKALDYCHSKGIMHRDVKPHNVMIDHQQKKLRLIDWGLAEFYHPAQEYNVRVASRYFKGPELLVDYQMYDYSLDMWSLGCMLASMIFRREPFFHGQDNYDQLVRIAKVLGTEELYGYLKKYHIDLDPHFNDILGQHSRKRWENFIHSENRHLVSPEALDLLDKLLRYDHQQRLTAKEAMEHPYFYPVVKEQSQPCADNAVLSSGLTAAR

Block 1 — organism: Sarcocystis neurona; effect on: parasite growth; tested at: 10 µM; reference: untreated
SMILES | log2 fold change
CCC(COC(=O)c1cc(OC)c(OC)c(OC)c1)(c1ccccc1)N(C)C.O=C(O)/C=C\C(=O)O (stereo not shown) | 0.43
C[C@]12CC[C@H]3[C@@H](CCC4=CC(=O)CC[C@@H]43)[C@@H]1CC[C@@H]2O | -0.09
CNC(=O)Oc1ccc2c(c1)[C@]1(C)CCN(C)[C@@H]1N2C.CNC(=O)Oc1ccc2c(c1)[C@]1(C)CCN(C)[C@@H]1N2C.O=S(=O)(O)O | 0.19
CCCCC/C=C\C/C=C\C/C=C\C/C=C\CCCC(=O)Nc1ccc(O)cc1 | -0.07
Cl.O=C1[C@H]2CCCC[C@H]2C(=O)N1CCCCN1CCN(c2nsc3ccccc23)CC1 | -2.39
Br.COc1ccc2c(c1)[C@]13CCCC[C@@H]1[C@H](C2)N(C)CC3 | 0.29

Block 2 — effect on: enzyme activity; mode: inhibitor; tested at: 0.5 µM; reference: control
SMILES: N/C(=N\[N+](=O)[O-])N/N=C\c1ccc(-c2cccc([N+](=O)[O-])c2)o1
target | remaining activity
Protein-tyrosine kinase 2-beta (PTK2B, Homo sapiens, UniProt Q14289) | 91.5%
Calcium/calmodulin-dependent protein kinase type 1D (CAMK1D, Homo sapiens, UniProt Q8IU85) | 96.4%
Cyclin-dependent kinase 2, with cyclin A (CDK2, Homo sapiens, UniProt P24941) | 106%
Casein kinase II subunit alpha' (CSNK2A2, Homo sapiens, UniProt P19784) | 107%
G protein-coupled receptor kinase 5 (GRK5, Homo sapiens, UniProt P34947) | 123%
Rho-associated protein kinase 2 (ROCK2, Homo sapiens, UniProt O75116) | 86.3%
Epidermal growth factor receptor (EGFR, Homo sapiens, UniProt P00533) | 100%
Serine/threonine-protein kinase N2 (PKN2, Homo sapiens, UniProt Q16513) | 92.6%
Myotonin-protein kinase (DMPK, Homo sapiens, UniProt Q09013) | 102%

Block 3 — cell line: HEK-293T/ACE2; tested at: concentration not given; time: 16 (unit not given); reference: vehicle
Structure (SMILES) | viability [%]
N[C@@H](Cc1cc(I)c(Oc2ccc(O)c(I)c2)c(I)c1)C(=O)O | 97.7
CC(C)C[C@H](CN)CC(=O)O | 101
CCCCC(=O)O[C@H]1CC[C@H]2[C@@H]3CCc4cc(O)ccc4[C@H]3CC[C@]12C | 103
CCCCCCCCCCCCCCCCOP(=O)([O-])OCC[N+](C)(C)C | 99.6
O=C1CCc2cc(OCCCCc3nnnn3C3CCCCC3)ccc2N1 | 99
CCCCN1CCCCC1C(=O)Nc1c(C)cccc1C (stereo not shown) | 89.6
c1ccc2c(CC3=NCCN3)cccc2c1 | 98

Block 4 — effect on: ligand displacement; tested at: 10 µM
Target: Kappa-type opioid receptor (OPRK1, Homo sapiens, UniProt P41145)
Sequence of UniProt P41145 (whole entry, looked up): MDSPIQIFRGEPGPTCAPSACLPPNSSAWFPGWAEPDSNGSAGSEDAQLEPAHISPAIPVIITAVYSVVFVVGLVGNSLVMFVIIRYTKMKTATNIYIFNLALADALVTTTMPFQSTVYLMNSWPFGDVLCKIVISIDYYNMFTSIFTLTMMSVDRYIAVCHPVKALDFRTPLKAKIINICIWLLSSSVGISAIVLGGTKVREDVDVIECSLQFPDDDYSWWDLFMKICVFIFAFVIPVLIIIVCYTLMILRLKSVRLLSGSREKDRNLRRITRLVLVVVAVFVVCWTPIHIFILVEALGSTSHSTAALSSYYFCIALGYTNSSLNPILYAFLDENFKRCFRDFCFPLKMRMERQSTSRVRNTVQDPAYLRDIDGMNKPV
SMILES | inhibition
Cc1noc([C@H]2C[C@@H](c3ccc(C(F)(F)F)cc3)CN(C(=O)N3CCS(=O)(=O)C3)C2)n1 | 7.69%
Nc1nc(NCc2ccccc2)nc(-c2cccc(CO)c2)n1 | 35.2%
COCCOc1nc(-c2ccc(Cl)nc2)nc2c1CN(C(=O)c1ncn3ccccc13)CC2 | -1.56%
COc1cc(N[C@@H]2CCCC[C@]2(O)C(F)(F)F)ccc1F | 10.5%
CCC(=NO)C(C)=Cc1ccc(F)c(C)c1 | 8.6%
Nc1nc(NCc2ccccc2)nc(-c2ccccc2CO)n1 | 30.2%
Cc1ccc(-c2cnc([C@@]3(O)CC[C@H](C(=O)O)C(C)(C)C3)s2)cc1Nc1cccc(C(F)(F)F)n1 | -5.83%
CN([C@@H]1CCc2c(CC(=O)O)c3ccccc3n2C1)S(=O)(=O)c1ccc(F)cc1 | 4.56%
Cc1c(N2CCNCC2)nc2ccc(Br)cc2c1C(=O)NC[C@H](CCC(=O)O)c1ccccc1Cl | 17.7%
COc1cccc(NC(=O)c2nc3scc(CN(C)Cc4ccccc4)c3c(=O)[nH]2)c1 | 14.2%
CNC(=O)Nc1ccc2c(c1)CC[C@]21OC(=O)N(CC(=O)N(Cc2ccc(F)cc2)[C@@H](C)C(F)(F)F)C1=O | 18.5%
CN(C)CC#Cc1ccc(OCCCc2sc(N3CCc4cccc(C(=O)Nc5nc6ccccc6s5)c4C3)nc2C(=O)O)c(F)c1 | -14.9%
CN(C)c1ncnc(-c2ccc3nc(Nc4cc(CN5CCN(C(=O)CC(F)(F)F)CC5)ccn4)[nH]c3c2)c1Cl | 33.7%
CC1=C(C#N)C(c2ccc3[nH]nc(C)c3c2)C(C#N)=C(C)N1 | 8.26%
O=C(N[C@H]1CCCCC/C=C\C2C[C@@]2(C(=O)O)NC(=O)[C@@H]2C[C@@H](Oc3ccncc3)CN2C1=O)OC1CCCC1 (stereo partly shown) | -10.6%
O=C1NC(c2ccccn2)Sc2ccccc21 (stereo not shown) | 4.68%
CC(=O)N1CCC(c2ccc(C(=O)NC3=NCCN3)cc2C(F)(F)F)CC1 | -13.9%
Cc1cc(Nc2nccc(C)n2)cc(-c2cnc([C@@]3(O)CC[C@H](C(=O)O)C(C)(C)C3)s2)c1 | 30.6%
CN1CCN(c2ccnc(NCCc3ccccc3)n2)CC1 | 23.7%
C[C@H](c1ccnc(Nc2nc3ccc(-c4cc(N(C)C)ncn4)cc3[nH]2)c1)N1CCN(C(=O)CC(F)(F)F)CC1 | 4.24%
CN1CCN(C(=O)C(C)(C)c2ccc(C(=O)Nc3cn4cc(-c5cc(C(C)(C)C)cc(C(C)(C)C)c5)ccc4n3)cc2)CC1 | 54.4%
CO[C@H]1CC[C@H](CNc2ccc(S(=O)(=O)NC(=O)c3ccc(N4CCN(CC5=C(c6ccc(Cl)cc6)CC(C)(C)CC5)CC4)cc3Oc3cnc4[nH]ccc4c3)cc2[N+](=O)[O-])CC1 | -27.6%
O=S(=O)(NC1CCC(c2cc(F)ccc2F)(S(=O)(=O)c2ccc(Cl)cc2)CC1)C(F)(F)F (stereo not shown) | 24.6%
CCC(F)(F)c1cc(N2CCC(S(C)(=O)=O)CC2)nc2sc(C(N)=O)c(N)c12 | 8.09%
CC[C@H](CC(=O)O)n1c(=O)c2ncccc2n(Cc2cn(C)c3cc(C)cc(C)c23)c1=O | 95.9%

Block 5 — effect on: ATPase activity; tested at: concentration not given; setting: average; added: with ssDNA
Target: DNA polymerase theta, helicase domain (POLQ, Homo sapiens, UniProt O75417)
Sequence of UniProt O75417 (whole entry, looked up): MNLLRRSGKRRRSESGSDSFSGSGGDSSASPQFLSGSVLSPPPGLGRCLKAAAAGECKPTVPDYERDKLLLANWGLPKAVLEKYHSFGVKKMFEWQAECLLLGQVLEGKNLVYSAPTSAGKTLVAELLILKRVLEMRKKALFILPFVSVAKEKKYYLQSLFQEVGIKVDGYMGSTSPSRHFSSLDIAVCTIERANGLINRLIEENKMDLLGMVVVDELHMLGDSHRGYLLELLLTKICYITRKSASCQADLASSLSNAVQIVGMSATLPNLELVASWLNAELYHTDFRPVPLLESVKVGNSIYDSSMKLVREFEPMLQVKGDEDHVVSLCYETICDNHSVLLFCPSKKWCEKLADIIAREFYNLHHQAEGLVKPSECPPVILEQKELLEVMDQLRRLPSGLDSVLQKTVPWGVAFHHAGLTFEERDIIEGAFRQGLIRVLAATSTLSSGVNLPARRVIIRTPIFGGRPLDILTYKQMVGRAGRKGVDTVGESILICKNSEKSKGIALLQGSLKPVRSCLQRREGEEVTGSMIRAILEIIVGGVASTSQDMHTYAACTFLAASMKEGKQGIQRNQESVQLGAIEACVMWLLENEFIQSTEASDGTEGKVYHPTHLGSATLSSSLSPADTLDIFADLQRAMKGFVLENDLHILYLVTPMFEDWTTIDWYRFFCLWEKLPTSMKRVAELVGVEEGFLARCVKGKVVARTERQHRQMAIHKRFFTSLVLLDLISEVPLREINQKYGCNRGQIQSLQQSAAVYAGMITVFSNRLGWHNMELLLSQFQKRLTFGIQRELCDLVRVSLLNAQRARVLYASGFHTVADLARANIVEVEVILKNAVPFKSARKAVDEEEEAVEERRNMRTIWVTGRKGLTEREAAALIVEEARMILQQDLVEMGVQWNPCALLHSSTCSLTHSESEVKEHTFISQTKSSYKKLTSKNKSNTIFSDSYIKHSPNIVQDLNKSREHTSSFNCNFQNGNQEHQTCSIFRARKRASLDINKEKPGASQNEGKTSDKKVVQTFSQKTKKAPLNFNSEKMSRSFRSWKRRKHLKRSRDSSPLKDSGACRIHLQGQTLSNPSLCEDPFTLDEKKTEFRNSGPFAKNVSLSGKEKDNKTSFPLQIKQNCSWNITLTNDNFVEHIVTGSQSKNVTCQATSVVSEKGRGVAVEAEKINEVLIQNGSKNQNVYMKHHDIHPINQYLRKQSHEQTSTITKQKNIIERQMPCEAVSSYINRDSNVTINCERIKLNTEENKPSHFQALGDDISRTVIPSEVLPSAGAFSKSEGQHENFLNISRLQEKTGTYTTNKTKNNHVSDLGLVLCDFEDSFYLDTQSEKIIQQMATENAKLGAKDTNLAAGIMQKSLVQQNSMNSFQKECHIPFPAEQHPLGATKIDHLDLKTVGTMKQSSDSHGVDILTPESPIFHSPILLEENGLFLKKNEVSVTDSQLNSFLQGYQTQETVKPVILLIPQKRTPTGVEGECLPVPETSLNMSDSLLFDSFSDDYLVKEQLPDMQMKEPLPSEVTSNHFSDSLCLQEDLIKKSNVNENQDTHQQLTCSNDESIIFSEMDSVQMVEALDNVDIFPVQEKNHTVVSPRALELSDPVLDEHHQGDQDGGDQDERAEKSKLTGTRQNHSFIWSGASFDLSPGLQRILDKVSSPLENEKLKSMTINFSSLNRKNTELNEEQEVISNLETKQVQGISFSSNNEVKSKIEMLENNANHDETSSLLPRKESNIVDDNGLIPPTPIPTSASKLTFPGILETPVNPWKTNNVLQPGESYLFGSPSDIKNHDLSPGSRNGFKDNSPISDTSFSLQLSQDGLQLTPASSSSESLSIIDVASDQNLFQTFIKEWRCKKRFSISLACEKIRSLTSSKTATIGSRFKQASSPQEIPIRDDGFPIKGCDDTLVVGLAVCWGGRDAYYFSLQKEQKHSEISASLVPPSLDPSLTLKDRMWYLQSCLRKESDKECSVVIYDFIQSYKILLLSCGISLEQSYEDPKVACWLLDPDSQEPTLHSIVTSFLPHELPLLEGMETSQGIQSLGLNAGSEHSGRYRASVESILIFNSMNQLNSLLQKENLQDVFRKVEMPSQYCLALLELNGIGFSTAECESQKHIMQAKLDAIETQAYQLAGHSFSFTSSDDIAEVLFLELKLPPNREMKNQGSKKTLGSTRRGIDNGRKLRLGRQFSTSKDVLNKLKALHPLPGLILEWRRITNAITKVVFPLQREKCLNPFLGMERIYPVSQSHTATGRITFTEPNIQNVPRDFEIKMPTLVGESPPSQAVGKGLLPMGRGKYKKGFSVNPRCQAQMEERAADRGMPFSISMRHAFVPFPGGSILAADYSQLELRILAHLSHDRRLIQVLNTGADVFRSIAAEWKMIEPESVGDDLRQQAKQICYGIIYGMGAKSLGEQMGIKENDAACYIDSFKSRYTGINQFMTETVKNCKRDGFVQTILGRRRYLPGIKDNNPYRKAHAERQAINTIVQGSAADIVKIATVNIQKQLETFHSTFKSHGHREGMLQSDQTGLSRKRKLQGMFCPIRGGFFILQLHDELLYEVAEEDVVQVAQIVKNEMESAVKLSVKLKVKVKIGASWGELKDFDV
SMILES | remaining activity [%]
CN(N=O)c1ccc(O)c(O)c1 | 38
COc1cc(C(c2c(O)c3ccccc3oc2=O)c2c(C)n(C)n(-c3ccccc3)c2=O)ccc1OCC(=O)O (stereo not shown) | 36.6
CSc1ccc(C(c2c(O)c3ccccc3oc2=O)c2c(C)n(C)n(-c3ccccc3)c2=O)cc1 (stereo not shown) | 70.7
CCN(CC)C(=O)c1ccc2c(c1)N(Cc1ccc(C(F)(F)F)cc1)C(=O)c1ccccc1S2 | 53.3

Block 6 — cell line: mouse MPNST tumor cells; method: high-content nuclear imaging; refers to: cell number; tested at: 10 µM; time: 12 h; setting: mean of 2 replicates; reference: plate mean; reading: higher = more cells
Structure (SMILES) | nuclei count
CN(C(=O)CN1C(=O)COc2cc(Cl)c(Cl)cc21)[C@@H](CN1CCCC1)c1ccc(-c2cccc(C(N)=O)c2)cc1 | -4.91 z-score
C#CCN(C)[C@H](C)Cc1ccccc1 | 0.318 z-score
C=CC[C@]1(O)CC[C@H]2[C@@H]3CCC4=CC(=O)CCC4=C3C=C[C@@]21C | -0.385 z-score
O=C(Oc1ccc(Br)cc1)N1CCN2CCC1CC2 | 1.9 z-score
